Experimental data collected from several papers.
Every numbered part comes from another study and shows a few of its results, in no order. Substitutions count along the parent as printed.
Chain of UniProt Q04912 (whole entry, looked up): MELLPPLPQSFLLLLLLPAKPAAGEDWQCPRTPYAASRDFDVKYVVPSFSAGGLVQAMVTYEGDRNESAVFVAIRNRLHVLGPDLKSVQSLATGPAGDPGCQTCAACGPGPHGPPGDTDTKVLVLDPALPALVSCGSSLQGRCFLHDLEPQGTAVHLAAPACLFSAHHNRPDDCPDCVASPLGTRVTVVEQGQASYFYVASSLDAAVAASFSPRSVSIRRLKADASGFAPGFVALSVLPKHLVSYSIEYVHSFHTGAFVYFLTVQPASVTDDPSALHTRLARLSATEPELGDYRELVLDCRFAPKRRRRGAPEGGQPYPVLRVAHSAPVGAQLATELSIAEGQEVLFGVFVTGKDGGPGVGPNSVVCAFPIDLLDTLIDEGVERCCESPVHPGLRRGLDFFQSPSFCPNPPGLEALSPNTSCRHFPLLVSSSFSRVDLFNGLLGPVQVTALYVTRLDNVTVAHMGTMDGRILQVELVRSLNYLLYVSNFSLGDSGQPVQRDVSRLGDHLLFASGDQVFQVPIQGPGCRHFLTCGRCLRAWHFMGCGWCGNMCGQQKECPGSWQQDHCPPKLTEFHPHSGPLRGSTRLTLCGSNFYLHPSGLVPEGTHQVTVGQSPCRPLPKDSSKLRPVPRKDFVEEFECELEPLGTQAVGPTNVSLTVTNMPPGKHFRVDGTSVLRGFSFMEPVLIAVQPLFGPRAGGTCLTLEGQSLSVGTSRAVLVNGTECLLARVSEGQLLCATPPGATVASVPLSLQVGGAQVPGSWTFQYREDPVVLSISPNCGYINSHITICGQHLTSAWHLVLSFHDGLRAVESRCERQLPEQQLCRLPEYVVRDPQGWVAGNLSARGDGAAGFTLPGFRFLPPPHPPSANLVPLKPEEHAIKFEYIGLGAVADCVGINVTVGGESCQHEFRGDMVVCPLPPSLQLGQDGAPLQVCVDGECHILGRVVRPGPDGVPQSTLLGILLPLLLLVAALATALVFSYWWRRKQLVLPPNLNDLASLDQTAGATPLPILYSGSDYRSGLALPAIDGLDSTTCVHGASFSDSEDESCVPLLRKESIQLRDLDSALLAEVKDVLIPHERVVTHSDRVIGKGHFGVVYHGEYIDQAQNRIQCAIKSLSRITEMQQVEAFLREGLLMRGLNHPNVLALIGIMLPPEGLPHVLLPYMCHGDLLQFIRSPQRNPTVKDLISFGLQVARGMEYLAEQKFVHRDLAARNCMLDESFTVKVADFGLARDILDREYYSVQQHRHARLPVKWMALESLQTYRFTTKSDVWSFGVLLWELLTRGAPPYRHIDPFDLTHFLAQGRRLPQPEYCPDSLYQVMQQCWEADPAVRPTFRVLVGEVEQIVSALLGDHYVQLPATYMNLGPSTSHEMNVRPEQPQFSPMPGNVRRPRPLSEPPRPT
Chain of UniProt Q9Y6M4 (whole entry, looked up): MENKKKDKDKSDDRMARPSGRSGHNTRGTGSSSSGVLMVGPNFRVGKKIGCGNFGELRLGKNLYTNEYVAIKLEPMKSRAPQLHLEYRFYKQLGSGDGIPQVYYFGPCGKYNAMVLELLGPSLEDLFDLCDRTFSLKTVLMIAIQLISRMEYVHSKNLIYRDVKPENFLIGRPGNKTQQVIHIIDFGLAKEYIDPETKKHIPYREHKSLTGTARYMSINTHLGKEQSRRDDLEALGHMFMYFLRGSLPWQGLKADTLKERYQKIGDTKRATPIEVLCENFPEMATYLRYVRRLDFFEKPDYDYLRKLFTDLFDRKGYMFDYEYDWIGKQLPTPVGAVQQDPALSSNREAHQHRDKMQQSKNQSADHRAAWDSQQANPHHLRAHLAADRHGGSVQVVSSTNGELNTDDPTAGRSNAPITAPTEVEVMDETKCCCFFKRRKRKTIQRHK
Chain of UniProt P42681 (whole entry, looked up): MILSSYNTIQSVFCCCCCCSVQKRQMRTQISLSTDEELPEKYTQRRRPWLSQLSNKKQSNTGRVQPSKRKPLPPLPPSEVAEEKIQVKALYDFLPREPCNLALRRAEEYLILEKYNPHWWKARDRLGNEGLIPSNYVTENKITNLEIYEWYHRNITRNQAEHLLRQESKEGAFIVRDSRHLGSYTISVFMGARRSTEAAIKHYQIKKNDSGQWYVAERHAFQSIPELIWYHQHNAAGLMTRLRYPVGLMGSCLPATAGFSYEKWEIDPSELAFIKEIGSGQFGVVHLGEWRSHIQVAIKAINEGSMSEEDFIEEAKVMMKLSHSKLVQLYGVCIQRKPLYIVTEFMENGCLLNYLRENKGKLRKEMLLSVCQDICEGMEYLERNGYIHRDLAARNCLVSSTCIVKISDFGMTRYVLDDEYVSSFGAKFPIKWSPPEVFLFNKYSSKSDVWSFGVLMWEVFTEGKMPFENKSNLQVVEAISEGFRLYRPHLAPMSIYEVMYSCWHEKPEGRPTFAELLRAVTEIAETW
Chain of UniProt P42336 (whole entry, unmodified, looked up): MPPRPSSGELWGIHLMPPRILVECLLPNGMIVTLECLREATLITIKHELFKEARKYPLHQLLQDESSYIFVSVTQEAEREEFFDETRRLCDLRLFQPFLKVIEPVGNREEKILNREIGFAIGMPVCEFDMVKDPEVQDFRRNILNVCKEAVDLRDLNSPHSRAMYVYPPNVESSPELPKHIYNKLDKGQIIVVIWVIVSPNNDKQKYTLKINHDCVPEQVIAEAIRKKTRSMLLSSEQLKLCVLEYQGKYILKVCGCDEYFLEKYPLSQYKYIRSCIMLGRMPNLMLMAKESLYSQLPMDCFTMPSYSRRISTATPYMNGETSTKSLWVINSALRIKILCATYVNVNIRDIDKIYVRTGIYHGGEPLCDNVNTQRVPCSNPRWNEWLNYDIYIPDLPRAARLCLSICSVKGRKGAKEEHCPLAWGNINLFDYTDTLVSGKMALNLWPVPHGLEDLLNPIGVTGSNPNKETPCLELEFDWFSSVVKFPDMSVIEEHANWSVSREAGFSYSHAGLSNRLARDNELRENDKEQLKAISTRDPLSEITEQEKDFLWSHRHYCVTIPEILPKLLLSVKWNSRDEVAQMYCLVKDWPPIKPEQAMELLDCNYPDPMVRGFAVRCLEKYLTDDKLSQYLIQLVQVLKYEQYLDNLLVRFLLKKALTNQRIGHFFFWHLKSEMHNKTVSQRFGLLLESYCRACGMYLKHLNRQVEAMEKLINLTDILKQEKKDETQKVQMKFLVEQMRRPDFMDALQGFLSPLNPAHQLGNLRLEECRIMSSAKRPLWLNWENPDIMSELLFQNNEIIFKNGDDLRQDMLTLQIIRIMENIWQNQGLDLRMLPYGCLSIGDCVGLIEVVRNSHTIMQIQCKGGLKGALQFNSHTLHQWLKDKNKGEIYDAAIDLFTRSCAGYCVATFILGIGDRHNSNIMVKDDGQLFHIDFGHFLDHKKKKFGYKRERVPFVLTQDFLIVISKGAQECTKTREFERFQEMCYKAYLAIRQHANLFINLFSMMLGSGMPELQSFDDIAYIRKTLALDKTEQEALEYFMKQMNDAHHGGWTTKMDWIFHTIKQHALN
Chain of UniProt Q00537 (whole entry, looked up): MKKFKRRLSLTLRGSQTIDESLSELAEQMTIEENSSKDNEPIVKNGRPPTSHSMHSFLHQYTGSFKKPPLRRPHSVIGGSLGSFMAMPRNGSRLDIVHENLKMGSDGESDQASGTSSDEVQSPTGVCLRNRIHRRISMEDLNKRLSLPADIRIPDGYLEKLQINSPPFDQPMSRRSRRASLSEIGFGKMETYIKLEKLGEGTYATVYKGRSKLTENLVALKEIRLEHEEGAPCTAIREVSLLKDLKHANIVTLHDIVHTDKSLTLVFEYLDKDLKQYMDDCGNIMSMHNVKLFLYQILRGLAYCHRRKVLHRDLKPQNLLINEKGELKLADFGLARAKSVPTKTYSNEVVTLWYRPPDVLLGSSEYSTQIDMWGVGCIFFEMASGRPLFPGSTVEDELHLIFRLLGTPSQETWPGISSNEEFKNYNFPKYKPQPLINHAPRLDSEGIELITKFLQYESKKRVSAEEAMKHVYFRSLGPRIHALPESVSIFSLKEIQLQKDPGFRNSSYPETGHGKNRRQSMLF
Chain of UniProt P06239 (whole entry, looked up): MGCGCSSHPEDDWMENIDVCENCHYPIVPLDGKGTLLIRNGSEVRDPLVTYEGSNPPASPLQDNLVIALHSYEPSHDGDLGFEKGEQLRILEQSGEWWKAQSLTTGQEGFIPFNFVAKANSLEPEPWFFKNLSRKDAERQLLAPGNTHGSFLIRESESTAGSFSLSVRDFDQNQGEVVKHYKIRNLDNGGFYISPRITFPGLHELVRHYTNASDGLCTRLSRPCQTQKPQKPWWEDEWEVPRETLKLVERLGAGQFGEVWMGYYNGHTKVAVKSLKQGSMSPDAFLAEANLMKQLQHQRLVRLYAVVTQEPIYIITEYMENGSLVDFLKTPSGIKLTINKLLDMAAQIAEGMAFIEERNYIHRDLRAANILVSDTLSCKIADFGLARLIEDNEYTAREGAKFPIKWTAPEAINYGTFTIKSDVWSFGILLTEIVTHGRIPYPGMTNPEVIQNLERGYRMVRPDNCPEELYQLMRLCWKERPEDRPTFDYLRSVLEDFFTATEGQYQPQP

Set 1 — method: protein-binding microarray; form: hairpin DNA; matrix: in vitro; concentration: not given; baseline: not given; reading: higher = stronger binding; constant ends, left off below: GAGGCCAG … CTGGCCTCACACTC
Target: Protein C-ets-1, full length (ETS1, Homo sapiens, UniProt P14921, residues 1-441)
Chain of UniProt P14921 (whole entry, looked up): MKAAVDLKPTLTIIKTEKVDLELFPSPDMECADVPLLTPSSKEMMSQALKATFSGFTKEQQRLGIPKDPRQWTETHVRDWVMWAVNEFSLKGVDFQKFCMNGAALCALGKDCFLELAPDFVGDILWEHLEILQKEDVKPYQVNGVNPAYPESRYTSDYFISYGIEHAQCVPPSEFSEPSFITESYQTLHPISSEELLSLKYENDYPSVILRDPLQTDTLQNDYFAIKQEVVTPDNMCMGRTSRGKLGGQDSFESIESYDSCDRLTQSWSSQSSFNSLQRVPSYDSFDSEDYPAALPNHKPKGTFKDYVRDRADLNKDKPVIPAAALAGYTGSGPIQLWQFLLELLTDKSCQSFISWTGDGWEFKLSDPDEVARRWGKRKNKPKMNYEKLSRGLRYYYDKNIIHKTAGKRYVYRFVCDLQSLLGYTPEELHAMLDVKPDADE
Notes: whole hairpin DNA, median over replicate spots
Oligonucleotide | median fluorescence [a.u.]
ACGGAAGTTGCCTCCTGGCAACTTCCGT | 4380
TCGGGAGTTGCCTCCTGGCAACTCCCGA | 556
CCGCAAGTTGCCTCCTGGCAACTTGCGG | 554
TCGGAAGATGCCTCCTGGCATCTTCCGA | 948
CCAGAAGTTGCCTCCTGGCAACTTCTGG | 544
CCGGTAGTTGCCTCCTGGCAACTACCGG | 774
CCGGCAGTTGCCTCCTGGCAACTGCCGG (5mC at 13) | 606
CCGGAAGTTGCCTCCTGGCAACTTCCGG (5mC at 9) | 4390

Set 2 — read-out: enzyme activity; action: inhibitor; concentration: 0.5 µM; baseline: control
SMILES: NC(=O)c1ccc(-c2nc(-c3ccc4c(c3)OCCO4)c(-c3ccccn3)[nH]2)cc1
target | remaining activity [%]
MAPKAPK2 (Homo sapiens, UniProt P49137) | 104
FGFR1 (Homo sapiens, UniProt P11362) | 94.5
LCK (Homo sapiens, UniProt P06239) | 100
FGFR3 (Homo sapiens, UniProt P22607) | 104
CSNK1G3 (Homo sapiens, UniProt Q9Y6M4) | 91.8
FRK (Homo sapiens, UniProt P42685) | 105
MAP3K14 (Homo sapiens, UniProt Q99558) | 93.4
ULK2 (Homo sapiens, UniProt Q8IYT8) | 90.9
EPHA3 (Homo sapiens, UniProt P29320) | 94.4
TEK (Homo sapiens, UniProt Q02763) | 97.9
MAP2K2 (Homo sapiens, UniProt P36507) | 106
CSNK1G2 (Homo sapiens, UniProt P78368) | 90.2
MST1R (Homo sapiens, UniProt Q04912) | 107

Set 3 — method: competition with immobilised ligand; concentration: 1 µM
Structure (SMILES): CS(=O)(=O)NCC[C@H](NC(=O)c1cncc2c1cnn2-c1ccc(F)cc1)c1ccnc(S(C)(=O)=O)c1
target | assay | remaining binding [%]
DYRK1B (Homo sapiens, UniProt Q9Y463) | cell-free assay | 100
Receptor-type tyrosine-protein kinase FLT3, autoinhibited (FLT3, Homo sapiens, UniProt P36888) | cell-free assay | 100
TXK (Homo sapiens, UniProt P42681) | binding | 84
CDK13 (Homo sapiens, UniProt Q14004) | cell-free assay | 100
AKT2 (Homo sapiens, UniProt P31751) | cell-free assay | 100
LIM domain kinase 2 (LIMK2, Homo sapiens, UniProt P53671) | cell-free assay | 100
PIK3CA (Homo sapiens, UniProt P42336, Q546K) | cell-free assay | 73
CDK17 (Homo sapiens, UniProt Q00537) | cell-free assay | 100
FLT3 (Homo sapiens, UniProt P36888, D835H) | cell-free assay | 100
FLT3 (Homo sapiens, UniProt P36888, D835V/ITD) | cell-free assay | 100
CDKL1 (Homo sapiens, UniProt Q00532) | binding | 84

Set 4 — target: NFE2L1, bZIP domain (human); method: DHFR protein complementation; matrix: yeast; baseline: wild-type JUN-FOS pair; reading: higher = stronger binding
Notes: single substitutions, most at no-binding floor
Starting sequence: JUN, bZIP domain (human); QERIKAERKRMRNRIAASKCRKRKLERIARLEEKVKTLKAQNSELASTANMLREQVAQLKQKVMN; partner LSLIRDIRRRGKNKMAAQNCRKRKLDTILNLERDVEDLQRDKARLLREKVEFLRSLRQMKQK
Change | binding fitness
A57E | -1.32 natural log
R30G | -1.36 natural log
I28W | -1.55 natural log
T37L | -1.58 natural log
L31M | -1.53 natural log
K34C | -1.42 natural log
Q55M | -1.52 natural log
V56K | -1.53 natural log
